# Experimental data gathered from unrelated publications.
# Several values in a cell are separate wells, animals, samples, runs or records. ± marks the error that the study gave.
# Chain of UniProt P35968 (whole entry, looked up): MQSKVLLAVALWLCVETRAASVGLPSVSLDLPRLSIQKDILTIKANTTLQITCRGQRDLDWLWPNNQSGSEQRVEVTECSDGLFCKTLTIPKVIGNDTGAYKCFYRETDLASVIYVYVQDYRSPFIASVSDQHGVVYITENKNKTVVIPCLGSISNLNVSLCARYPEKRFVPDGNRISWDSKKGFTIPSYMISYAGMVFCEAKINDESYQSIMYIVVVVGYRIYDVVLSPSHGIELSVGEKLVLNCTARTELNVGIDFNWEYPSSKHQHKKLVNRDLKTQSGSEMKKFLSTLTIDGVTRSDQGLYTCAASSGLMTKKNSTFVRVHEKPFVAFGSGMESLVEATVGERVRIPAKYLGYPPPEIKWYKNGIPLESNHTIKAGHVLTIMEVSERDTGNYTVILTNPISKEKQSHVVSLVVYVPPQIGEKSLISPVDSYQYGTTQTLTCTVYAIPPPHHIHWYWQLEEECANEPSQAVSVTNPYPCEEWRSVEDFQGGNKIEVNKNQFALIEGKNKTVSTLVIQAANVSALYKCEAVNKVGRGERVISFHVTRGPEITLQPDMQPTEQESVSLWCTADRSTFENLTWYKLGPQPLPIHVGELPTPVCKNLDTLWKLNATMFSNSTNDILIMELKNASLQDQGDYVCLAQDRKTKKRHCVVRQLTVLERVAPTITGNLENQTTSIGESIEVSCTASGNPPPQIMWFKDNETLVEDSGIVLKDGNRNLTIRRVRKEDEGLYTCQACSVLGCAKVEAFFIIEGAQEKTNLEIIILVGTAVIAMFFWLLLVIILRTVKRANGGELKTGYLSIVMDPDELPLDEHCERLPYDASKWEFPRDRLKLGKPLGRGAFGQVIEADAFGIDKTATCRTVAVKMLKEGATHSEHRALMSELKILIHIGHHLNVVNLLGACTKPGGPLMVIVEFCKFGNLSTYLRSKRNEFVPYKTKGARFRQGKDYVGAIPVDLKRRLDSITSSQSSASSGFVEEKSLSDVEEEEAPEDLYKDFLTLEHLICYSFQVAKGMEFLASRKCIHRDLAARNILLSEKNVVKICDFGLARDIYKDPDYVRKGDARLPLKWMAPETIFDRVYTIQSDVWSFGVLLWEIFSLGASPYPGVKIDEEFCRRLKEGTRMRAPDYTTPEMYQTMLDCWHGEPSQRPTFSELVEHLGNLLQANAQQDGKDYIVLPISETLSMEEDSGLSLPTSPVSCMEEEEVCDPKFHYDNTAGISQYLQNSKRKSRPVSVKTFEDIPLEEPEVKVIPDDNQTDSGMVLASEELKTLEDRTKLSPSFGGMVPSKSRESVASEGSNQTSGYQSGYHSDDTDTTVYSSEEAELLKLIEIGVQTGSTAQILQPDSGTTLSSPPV
# Chain of UniProt Q16512 (whole entry, looked up): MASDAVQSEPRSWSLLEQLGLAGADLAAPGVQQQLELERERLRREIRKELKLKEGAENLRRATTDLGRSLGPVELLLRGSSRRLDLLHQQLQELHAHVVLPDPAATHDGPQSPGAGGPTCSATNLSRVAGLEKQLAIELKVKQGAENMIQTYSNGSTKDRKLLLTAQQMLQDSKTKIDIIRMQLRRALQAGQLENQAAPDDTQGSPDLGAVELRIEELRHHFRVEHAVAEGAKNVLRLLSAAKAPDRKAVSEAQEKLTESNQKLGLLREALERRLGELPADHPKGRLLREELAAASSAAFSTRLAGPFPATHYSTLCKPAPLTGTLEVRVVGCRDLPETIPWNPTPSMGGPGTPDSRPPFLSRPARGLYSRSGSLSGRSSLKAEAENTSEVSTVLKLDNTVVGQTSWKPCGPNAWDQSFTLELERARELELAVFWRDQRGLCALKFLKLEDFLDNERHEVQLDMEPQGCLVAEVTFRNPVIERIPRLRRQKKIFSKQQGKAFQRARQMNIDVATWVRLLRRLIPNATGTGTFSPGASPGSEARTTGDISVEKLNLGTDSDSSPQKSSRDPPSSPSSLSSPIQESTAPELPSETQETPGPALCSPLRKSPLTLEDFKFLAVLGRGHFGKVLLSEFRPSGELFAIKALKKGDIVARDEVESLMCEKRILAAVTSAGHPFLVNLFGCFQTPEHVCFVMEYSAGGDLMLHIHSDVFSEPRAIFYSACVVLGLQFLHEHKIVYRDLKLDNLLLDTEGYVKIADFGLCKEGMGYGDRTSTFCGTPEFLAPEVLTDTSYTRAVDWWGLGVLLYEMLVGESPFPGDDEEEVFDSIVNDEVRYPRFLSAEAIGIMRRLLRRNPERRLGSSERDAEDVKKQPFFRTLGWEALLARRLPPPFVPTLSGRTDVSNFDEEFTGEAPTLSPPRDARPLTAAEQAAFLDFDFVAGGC
# Chain of UniProt P10768 (whole entry, looked up): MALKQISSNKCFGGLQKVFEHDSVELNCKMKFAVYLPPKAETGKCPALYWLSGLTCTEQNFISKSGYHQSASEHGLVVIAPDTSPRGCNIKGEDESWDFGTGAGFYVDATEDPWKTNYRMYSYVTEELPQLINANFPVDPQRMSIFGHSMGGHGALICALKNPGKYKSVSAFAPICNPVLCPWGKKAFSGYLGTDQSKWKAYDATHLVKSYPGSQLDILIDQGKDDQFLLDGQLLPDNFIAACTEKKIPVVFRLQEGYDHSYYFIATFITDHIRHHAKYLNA
SMILES,tested on,test,system,setting,scale,measurement,result
Oc1ccc(C(c2ccc(O)cc2)(C(F)(F)F)C(F)(F)F)cc1,HepG2 spheroids,annexin V-FITC/PI flow cytometry,,"0.10 µM, 96 h",,late apoptotic cells,34.2 ± 8.11%
O=c1ccc2ccccc2o1,NHEK,"ER stress, refers to: BiP",,"concentration not given, 6 h",,chance response,0.08%
Cc1ccc(NC(=O)c2cc3c(=O)n4cccc(C)c4nc3n2C)cc1Cl,Vero,MTT,,"25 µM, 24 (unit not given)",,viability,57%
O=C(c1ccc(Cl)cc1)N1CCN2C(=O)N(OC(=O)N3CCOc4ccccc43)C(=O)C2C1 (stereo not shown),"S-formylglutathione hydrolase (Homo sapiens, UniProt P10768)",MS-based ABPP,SW-620 conditioned medium,"10 µM, 1 h, 37 °C","reference: compound over DMSO, lower = more inhibition",median protein ratio,1.22
OC(CN1CCC(Cc2ccc(F)cc2)CC1)c1ccc(Cl)cc1 (stereo not shown),Plasmodium falciparum,,Dd2,,,IC50,1580 nM
CCN(CC)C(=S)SSC(=S)N(CC)CC,THP-1 ASC-GFP monocytes,MTT,,24 h,,maximum tolerated dose,3.11 µg/mL
CC(C)C[C@H](NC(=O)[C@H](C)NC(=O)[C@@H](NC(=O)[C@H](CCCNC(=N)N)NC(=O)[C@H](CC(C)C)NC(=O)[C@H](Cc1c[nH]c2ccccc12)NC(=O)[C@@H]1CCCN1C(=O)[C@@H](N)CCCCN)C(C)C)C(=O)N[C@@H](CS)C(=O)N1CCC[C@H]1C(=O)NCC(=O)O,H9c2,WST-1,,"256 µM, 24 h",,viability,78.2% and 86.4% and 91%
C[C@H]1CN(c2n[nH]c3nc(N[C@H]4CC[C@H](NS(=O)(=O)CCC(F)(F)F)CC4)ncc23)CCO1,"PKN1 (Homo sapiens, UniProt Q16512)","inhibitor, Kinobeads competition profiling",,0.032 µM,reference: vehicle,relative abundance,0.98
O=S(=O)(c1ccc(O)cc1)c1ccc(O)cc1,"HepG2 spheroids, dissociated",annexin V-FITC/PI flow cytometry,,"10 µM, 96 h",,late apoptotic cells,37.2 ± 1.8%
Cn1c(C(=O)Nc2ccc3c(c2)OCCO3)cc2c(=O)n3ccccc3nc21,Vero,MTT,,"6.3 µM, 24 (unit not given)",,viability,65.5%
CCOC(=O)Nc1ccc(NCc2ccc(F)cc2)nc1N,Plasmodium falciparum,,W2,,,IC50,2000 nM
CO[C@H]1C[C@@H]2CC[C@@H](C)[C@@](O)(O2)C(=O)C(=O)N2CCCC[C@H]2C(=O)O[C@H]([C@H](C)C[C@@H]2CC[C@@H](OC(=O)NCCOCCOCCOCCOCCOCCOCCOCCOCCC(=O)N3CCc4cc(Cn5nc(-c6ccc7oc(N)nc7c6)c6c(N)ncnc65)ccc4C3)[C@H](OC)C2)C[C@@H](O)[C@H](C)/C=C(\C)[C@@H](O)[C@@H](OC)C(=O)[C@H](C)C[C@H](C)/C=C/C=C/C=C/1C,,"phase 1 dose escalation, refers to: fatigue",advanced solid tumour patients,"intravenous, 10 mg weekly, grade ≥3",,TRAE incidence,12.5%
CC[C@H](C)[C@H](NC(=O)[C@H](CC(C)C)NC(=O)[C@@H]1CCCN1C(=O)[C@@H]1CCCN1C(=O)[C@H](CCCCN)NC(=O)[C@H](CO)NC(=O)[C@@H](NC(=O)[C@@H](NC(=O)[C@H](CC(=O)O)NC(=O)[C@H](CC(C)C)NC(=O)[C@H](CCCCN)NC(=O)[C@H](Cc1ccc(O)cc1)NC(=O)[C@H](CCSC)NC(=O)[C@H](CCCCN)NC(=O)[C@@H](N)[C@@H](C)O)C(C)C)C(C)C)C(=O)N[C@@H](CC(N)=O)C(=O)NCC(=O)N[C@@H](CC(C)C)C(=O)N[C@@H](Cc1ccc(O)cc1)C(=O)N[C@H](C(=O)N[C@@H](CC(N)=O)C(=O)N[C@@H](CCCNC(=N)N)C(=O)N[C@H](C(=O)N[C@H](C(=O)N[C@H](C(=O)N[C@@H](CCCCN)C(=O)N[C@@H](C)C(=O)N[C@H](C(=O)N[C@@H](C)C(=O)N[C@H](C(=O)N[C@@H](CCCNC(=N)N)C(=O)N[C@@H](Cc1c[nH]cn1)C(=O)N[C@@H](CO)C(=O)N[C@@H](CCCCN)C(=O)N[C@@H](CCCCN)C(=O)N[C@@H](Cc1c[nH]cn1)C(=O)N[C@@H](Cc1ccccc1)C(=O)O)C(C)C)[C@@H](C)O)[C@@H](C)CC)C(C)C)[C@@H](C)O)[C@@H](C)O,PMA-differentiated THP-1,"cell viability, MTT",,24 h,,CC50,55000 nM
CC(C)(O)Cc1nc(N)[nH]c(=O)c1Br,HeLa,cell morphology alteration,,,,minimum cytotoxic concentration,> 100 µM
N=C(N)NCCC[C@H](NC(=O)[C@H](Cc1c[nH]c2ccccc12)NC(=O)[C@H](CCCNC(=N)N)NC(=O)[C@H](Cc1c[nH]c2ccccc12)NC(=O)[C@H](Cc1c[nH]c2ccccc12)NC(=O)[C@H](Cc1c[nH]c2ccccc12)NC(=O)[C@H](CCCNC(=N)N)NC(=O)[C@H](Cc1c[nH]c2ccccc12)NC(=O)[C@@H](N)CCCNC(=N)N)C(N)=O,PK-15,,,,,LC50,> 512000 nM
Oc1ccc(C2(c3ccc(O)cc3)c3ccccc3-c3ccccc32)cc1,"HepG2 spheroids, dissociated",annexin V-FITC/PI flow cytometry,,"1 µM, 96 h",,viable cells,38.8 ± 7.06%
N#C[C@@]1(n2ccc(N)nc2=O)O[C@H](CO)[C@@H](O)[C@H]1O,CHO,,,"250 µM, with S9",,micronucleated cells,0.37%
COc1ccc(N2C(=O)N(c3c(C)cccc3Cl)Cc3cnc(Nc4ccc(C5CCN(C)CC5)cc4OC)nc32)nc1,"KDR (Homo sapiens, UniProt P35968)",kinase activity,,0.5 µM,,inhibition,35%
CCC(C)(c1ccc(O)cc1)c1ccc(O)cc1,MVLN,alamarBlue,,"50 µM, 48 h",,cell viability,decreased

# Some of these lines once more:
SMILES,tested on,test,system,setting,scale,measurement,result
CO[C@H]1C[C@@H]2CC[C@@H](C)[C@@](O)(O2)C(=O)C(=O)N2CCCC[C@H]2C(=O)O[C@H]([C@H](C)C[C@@H]2CC[C@@H](OC(=O)NCCOCCOCCOCCOCCOCCOCCOCCOCCC(=O)N3CCc4cc(Cn5nc(-c6ccc7oc(N)nc7c6)c6c(N)ncnc65)ccc4C3)[C@H](OC)C2)C[C@@H](O)[C@H](C)/C=C(\C)[C@@H](O)[C@@H](OC)C(=O)[C@H](C)C[C@H](C)/C=C/C=C/C=C/1C,,"phase 1 dose escalation, refers to: fatigue",advanced solid tumour patients,"intravenous, 10 mg weekly, grade ≥3",,TRAE incidence,12.5%
